Assay results pooled from the literature.
Each numbered part is a random draw from the data of one study; scales do not carry over between parts.
Chain of UniProt Q13188 (whole entry, looked up): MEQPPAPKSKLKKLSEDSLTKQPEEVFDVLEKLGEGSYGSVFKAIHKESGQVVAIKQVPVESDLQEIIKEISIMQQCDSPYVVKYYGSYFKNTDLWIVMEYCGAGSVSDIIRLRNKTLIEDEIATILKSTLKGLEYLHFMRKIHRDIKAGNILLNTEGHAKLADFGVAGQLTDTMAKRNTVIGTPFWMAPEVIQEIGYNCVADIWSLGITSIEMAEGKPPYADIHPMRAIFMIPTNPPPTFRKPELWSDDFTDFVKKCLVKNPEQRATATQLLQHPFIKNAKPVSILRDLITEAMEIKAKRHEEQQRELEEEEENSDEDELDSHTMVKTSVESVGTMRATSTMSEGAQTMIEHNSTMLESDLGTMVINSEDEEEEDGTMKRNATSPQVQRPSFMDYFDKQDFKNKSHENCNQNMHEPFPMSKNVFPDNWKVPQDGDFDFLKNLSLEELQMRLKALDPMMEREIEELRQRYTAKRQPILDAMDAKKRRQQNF
Chain of UniProt Q16659 (whole entry, looked up): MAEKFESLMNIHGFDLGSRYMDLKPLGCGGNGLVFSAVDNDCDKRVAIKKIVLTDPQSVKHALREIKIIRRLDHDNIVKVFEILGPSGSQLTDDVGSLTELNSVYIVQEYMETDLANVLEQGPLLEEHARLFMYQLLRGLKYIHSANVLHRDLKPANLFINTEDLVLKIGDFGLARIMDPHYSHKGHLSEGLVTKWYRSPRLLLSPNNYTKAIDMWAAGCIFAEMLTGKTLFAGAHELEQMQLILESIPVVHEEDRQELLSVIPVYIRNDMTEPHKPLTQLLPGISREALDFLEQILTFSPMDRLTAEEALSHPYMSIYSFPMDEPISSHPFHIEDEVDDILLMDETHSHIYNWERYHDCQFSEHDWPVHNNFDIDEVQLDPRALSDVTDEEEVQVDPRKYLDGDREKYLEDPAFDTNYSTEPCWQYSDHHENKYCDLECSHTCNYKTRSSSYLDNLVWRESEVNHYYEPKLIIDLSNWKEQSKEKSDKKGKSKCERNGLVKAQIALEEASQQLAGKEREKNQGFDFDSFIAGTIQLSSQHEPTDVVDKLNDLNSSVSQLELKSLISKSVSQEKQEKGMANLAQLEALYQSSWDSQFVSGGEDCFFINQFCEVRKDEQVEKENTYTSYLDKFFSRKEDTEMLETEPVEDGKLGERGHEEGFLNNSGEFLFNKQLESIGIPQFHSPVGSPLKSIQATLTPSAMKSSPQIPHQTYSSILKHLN
Chain of UniProt Q13470 (whole entry, looked up): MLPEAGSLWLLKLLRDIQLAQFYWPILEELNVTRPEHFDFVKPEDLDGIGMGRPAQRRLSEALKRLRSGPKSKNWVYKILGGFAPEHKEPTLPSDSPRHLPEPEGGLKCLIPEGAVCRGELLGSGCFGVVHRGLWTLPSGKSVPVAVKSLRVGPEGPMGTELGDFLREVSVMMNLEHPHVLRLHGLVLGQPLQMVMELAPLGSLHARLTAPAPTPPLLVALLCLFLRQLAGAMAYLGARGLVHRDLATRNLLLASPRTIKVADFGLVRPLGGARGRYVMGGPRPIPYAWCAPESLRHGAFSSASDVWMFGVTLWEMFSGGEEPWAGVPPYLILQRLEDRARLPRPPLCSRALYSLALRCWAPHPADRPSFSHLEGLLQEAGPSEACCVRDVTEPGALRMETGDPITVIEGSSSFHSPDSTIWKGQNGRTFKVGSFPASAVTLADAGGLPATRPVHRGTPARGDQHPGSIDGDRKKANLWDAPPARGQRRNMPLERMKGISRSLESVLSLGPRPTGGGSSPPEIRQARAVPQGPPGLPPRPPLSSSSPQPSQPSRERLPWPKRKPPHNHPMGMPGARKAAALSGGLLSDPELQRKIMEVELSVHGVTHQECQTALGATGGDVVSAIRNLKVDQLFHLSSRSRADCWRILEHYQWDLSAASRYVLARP
Chain of UniProt P07948 (whole entry, looked up): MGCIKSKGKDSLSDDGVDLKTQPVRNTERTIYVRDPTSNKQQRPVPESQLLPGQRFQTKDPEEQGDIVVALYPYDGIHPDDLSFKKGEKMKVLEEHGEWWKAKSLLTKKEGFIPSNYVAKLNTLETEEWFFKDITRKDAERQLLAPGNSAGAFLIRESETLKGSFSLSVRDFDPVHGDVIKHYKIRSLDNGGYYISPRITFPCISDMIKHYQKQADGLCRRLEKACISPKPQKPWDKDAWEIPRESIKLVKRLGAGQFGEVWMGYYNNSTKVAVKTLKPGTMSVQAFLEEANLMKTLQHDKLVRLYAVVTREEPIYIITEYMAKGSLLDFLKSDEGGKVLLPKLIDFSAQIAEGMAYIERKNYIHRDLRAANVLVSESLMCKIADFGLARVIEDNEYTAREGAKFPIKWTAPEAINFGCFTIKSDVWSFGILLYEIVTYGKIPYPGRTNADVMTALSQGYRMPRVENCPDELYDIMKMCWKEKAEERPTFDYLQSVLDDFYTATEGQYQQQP
Chain of UniProt O15197 (whole entry, looked up): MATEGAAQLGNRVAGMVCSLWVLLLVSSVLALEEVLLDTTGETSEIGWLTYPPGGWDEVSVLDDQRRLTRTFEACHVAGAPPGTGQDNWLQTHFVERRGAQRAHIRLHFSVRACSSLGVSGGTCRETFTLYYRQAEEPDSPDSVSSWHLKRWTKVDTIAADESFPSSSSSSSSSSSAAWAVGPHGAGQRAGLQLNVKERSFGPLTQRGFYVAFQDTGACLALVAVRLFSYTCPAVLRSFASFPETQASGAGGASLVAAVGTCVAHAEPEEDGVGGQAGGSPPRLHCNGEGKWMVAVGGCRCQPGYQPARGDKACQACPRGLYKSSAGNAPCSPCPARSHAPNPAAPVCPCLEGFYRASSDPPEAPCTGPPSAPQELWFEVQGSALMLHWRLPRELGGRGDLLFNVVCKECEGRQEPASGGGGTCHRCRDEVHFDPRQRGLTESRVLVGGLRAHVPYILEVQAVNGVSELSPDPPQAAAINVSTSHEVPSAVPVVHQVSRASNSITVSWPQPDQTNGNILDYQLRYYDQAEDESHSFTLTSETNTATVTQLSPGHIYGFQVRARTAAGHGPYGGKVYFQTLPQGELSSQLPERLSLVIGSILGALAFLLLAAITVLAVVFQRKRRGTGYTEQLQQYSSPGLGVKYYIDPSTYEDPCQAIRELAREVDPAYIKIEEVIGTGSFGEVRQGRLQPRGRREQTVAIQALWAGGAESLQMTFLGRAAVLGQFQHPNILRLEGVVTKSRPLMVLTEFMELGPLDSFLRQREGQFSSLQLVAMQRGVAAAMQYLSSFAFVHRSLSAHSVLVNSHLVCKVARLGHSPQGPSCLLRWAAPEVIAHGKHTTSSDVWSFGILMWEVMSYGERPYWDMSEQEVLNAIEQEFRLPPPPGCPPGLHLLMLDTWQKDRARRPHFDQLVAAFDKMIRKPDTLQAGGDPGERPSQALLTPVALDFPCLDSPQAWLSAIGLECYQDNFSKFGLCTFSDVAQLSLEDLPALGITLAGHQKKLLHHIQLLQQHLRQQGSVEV

Set 1 — read-out: enzyme activity; action: inhibitor; concentration: 0.5 µM; reference: control
Target: Tyrosine-protein kinase ZAP-70 (ZAP70, Homo sapiens, UniProt P43403)
Target sequence (P43403 1-619): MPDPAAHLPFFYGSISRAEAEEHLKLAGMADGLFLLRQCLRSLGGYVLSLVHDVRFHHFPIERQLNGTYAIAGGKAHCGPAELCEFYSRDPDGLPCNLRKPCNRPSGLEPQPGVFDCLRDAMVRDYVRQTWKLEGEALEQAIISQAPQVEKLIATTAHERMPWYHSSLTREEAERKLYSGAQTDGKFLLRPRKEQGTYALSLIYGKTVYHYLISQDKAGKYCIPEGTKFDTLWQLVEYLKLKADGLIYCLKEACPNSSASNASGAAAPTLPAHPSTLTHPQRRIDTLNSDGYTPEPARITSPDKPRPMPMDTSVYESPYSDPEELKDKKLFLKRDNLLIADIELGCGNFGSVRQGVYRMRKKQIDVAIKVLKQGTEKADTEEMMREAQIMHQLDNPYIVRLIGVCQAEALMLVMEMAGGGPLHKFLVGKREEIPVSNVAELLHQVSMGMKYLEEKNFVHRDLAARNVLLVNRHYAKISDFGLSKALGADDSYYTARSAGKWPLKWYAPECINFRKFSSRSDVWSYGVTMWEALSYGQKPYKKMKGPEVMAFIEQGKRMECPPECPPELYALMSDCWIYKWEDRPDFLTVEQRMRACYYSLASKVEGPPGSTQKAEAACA
The remaining activity of `CC(C)[C@H](CO)Nc1nc(Nc2cccc(Cl)c2)c2ncn(C(C)C)c2n1` is reported as 99.7%.
`CCC(=O)Nc1ccc2ncnc(Nc3cccc(Br)c3)c2c1` gave a remaining activity of 113%.
For `Cn1cnc2cc3c(Nc4cccc(Br)c4)ncnc3cc21`, the remaining activity was 110%.
With `COc1cc2ncc(-c3ccccc3)nc2cc1OC` the remaining activity was 98.6%.
The remaining activity of `CCN1/C(=C/C(C)=O)Sc2ccc(OC)cc21` is reported as 103%.
For `O=C(Nc1ccc(Cl)cc1)c1ccccc1NCc1ccncc1`, the remaining activity was 103%.
`COc1cc2ncnc(N3CCN(C(=O)Nc4ccc(Oc5ccccc5)cc4)CC3)c2cc1OC` gave a remaining activity of 100%.
`COc1ccc(Cl)cc1NC(=O)Nc1cc(C)nc2ccccc12` gave a remaining activity of 94.9%.
`Cn1cc(/C=C2\C(=O)Nc3ccc(S(N)(=O)=O)cc32)c2ccccc21` gave a remaining activity of 102%.
`C[S+]([O-])c1ccc(-c2nc(-c3ccncc3)c(-c3ccc(F)cc3)[nH]2)cc1` (centres unmarked) has a remaining activity of 94.4%.
The remaining activity of `CN(C)CCCn1cc(C2=C(c3c[nH]c4ccccc34)C(=O)NC2=O)c2ccccc21` is reported as 93%.

Set 2 — target: His6 tag; method: AlphaScreen counter screen; concentration: concentration not given
`COc1ccc(C(=O)Nc2ccc3[nH]ncc3c2)c(OC)c1` gave an inhibition of 5.5%.
The inhibition of `CN1CCC(Nc2ncc3ncnc(Nc4ccc(F)c(Cl)c4)c3n2)CC1` is reported as -11%.
With `COc1cccc2cc(-c3nc([C@H]4CC[C@H](C(=O)O)CC4)n4ncnc(N)c34)[nH]c12` the inhibition was 4.4%.
The inhibition of `COc1cc2ncn(-c3cc(OCc4ccccc4S(C)(=O)=O)c(C#N)s3)c2cc1OC` is reported as -15.2%.
With `COC(=O)C(C)Sc1ccc2nnc(-c3ccc(Cl)cc3)n2n1` (centres unmarked) the inhibition was -8.65%.
For `NC(=O)NC(=O)CSc1nc2ccccc2c(=O)n1-c1ccccc1F`, the inhibition was 1.4%.
With `CCOc1ccc2nc(NC(=O)CCC(=O)O)sc2c1` the inhibition was 5.4%.
`CC(C)CNc1nccn2c(-c3cccnc3)cnc12` has an inhibition of 14.8%.
`CCCOc1ccc(-c2csc3nc[nH]c(=O)c23)cc1` gave an inhibition of 7.65%.
The inhibition of `O=C(CSc1ccc2nnc(-c3cccc(F)c3)n2n1)Nc1ccc(Cl)cc1` is reported as -17.6%.

Set 3 — read-out: cell-free assay; method: competition with immobilised ligand; concentration: 1 µM
SMILES: O=C(NCc1ncc(C(F)(F)F)cc1Cl)c1ccc2c(c1)C1(CCS(=O)(=O)CC1)[C@@H](C1CC1)N2S(=O)(=O)c1ccc(F)cc1
For Ephrin type-B receptor 6 (EPHB6, Homo sapiens, UniProt O15197): remaining binding read 94%.
Dual specificity tyrosine-phosphorylation-regulated kinase 1A (DYRK1A, Homo sapiens, UniProt Q13627) — remaining binding: 85%.
For Serine/threonine-protein kinase 3 (STK3, Homo sapiens, UniProt Q13188): remaining binding read 87%.
It gave 94% for remaining binding (Receptor-type tyrosine-protein kinase FLT3, autoinhibited (FLT3, Homo sapiens, UniProt P36888)).
The remaining binding was 100% (Tyrosine-protein kinase Lyn (LYN, Homo sapiens, UniProt P07948)).
For Non-receptor tyrosine-protein kinase TNK1 (TNK1, Homo sapiens, UniProt Q13470): remaining binding read 88%.
The remaining binding was 86% (Mitogen-activated protein kinase 6 (MAPK6, Homo sapiens, UniProt Q16659)).

Mixed results
For `CCOC(=O)CN(C(=O)c1ccn2ncc(-c3ccc(C(=O)NC)cc3)c2c1)c1ccc(Cl)cc1`, the plasma concentration was 242 nM (C57BL/6 IFN-γ knockout mouse, female, plasma; oral, 10 mg/kg, 1 h).

Excerpt of the above (set 3):
It gave 94% for remaining binding (Receptor-type tyrosine-protein kinase FLT3, autoinhibited (FLT3, Homo sapiens, UniProt P36888)).
The remaining binding was 100% (Tyrosine-protein kinase Lyn (LYN, Homo sapiens, UniProt P07948)).
For Non-receptor tyrosine-protein kinase TNK1 (TNK1, Homo sapiens, UniProt Q13470): remaining binding read 88%.
Dual specificity tyrosine-phosphorylation-regulated kinase 1A (DYRK1A, Homo sapiens, UniProt Q13627) — remaining binding: 85%.
